Results collected from several papers.
A part holds a random share of what one study measured.

Study 1
Target: Prothrombin, mature alpha-thrombin (F2, Homo sapiens, UniProt P00734)
Method: aptamer microarray, sandwich
Molecule type: DNA with 2'F-ANA
Medium: in vitro
Tested at: 200 nM
Notes: whole 15-mer aptamer, many near background
Together with: Cy3 exosite-II aptamer, 400 nM
Reading: higher = stronger binding
Sequence: GGTTGGTGTGGTTGG
Modification	mean fluorescence intensity
2'F-ANA at 1 2 4 5 9 10 14 15	47 a.u.
2'F-ANA at 1 4 5 6 8 9 12 14	47 a.u.
2'F-ANA at 4 5 6 7 11 13 14	43.8 a.u.
2'F-ANA at 2 3 5 10 14	69.3 a.u.
2'F-ANA at 2 4 5 7 8 9 11 13 15	53.3 a.u.
2'F-ANA at 1 2 5 6 8 10 14	51.5 a.u.
2'F-ANA at 4 5 7 8 11 12 13 14 15	52.8 a.u.
2'F-ANA at 4 6 9 10 11 12 14	62.9 a.u.
2'F-ANA at 1 2 3 7 8 12 14	123 a.u.
2'F-ANA at 1 3 5 7 9 10 11 14	43.3 a.u.
2'F-ANA at 1 2 3 5 9 10 11 12 14 15	47.2 a.u.
2'F-ANA at 1 2 4 5 7 9 12 14	45.2 a.u.
2'F-ANA at 2 5 8 10 12 13	62.2 a.u.
2'F-ANA at 1 2 3 6 7 11 12 13	482 a.u.
2'F-ANA at 2 4 8 10 11	83.1 a.u.
2'F-ANA at 4 9	365 a.u.
2'F-ANA at 3 7 8 9 12	1570 a.u.
2'F-ANA at 5 6 7 9 10 13 15	49.1 a.u.
2'F-ANA at 1 2 3 4 5 6 7 8 9 10 11 13 14	62.1 a.u.
2'F-ANA at 3 4 7 9 10 12 13 14	227 a.u.
2'F-ANA at 1 2 3 4 5 7 13 15	75.6 a.u.
2'F-ANA at 2 4 7 9 11 13 14 15	81.3 a.u.
2'F-ANA at 2 3 4 5 7 9 11 12 14 15	61.7 a.u.
2'F-ANA at 1 2 4 6 7 8 10 11 12 15	81.5 a.u.

Study 2
Target: Histone acetyltransferase KAT6A, winged helix 2, GST fusion (KAT6A, Homo sapiens, UniProt Q92794, residues 85-181)
Method: protein binding microarray
Molecule type: double-stranded DNA, one strand shown
Medium: in vitro
Tested at: not given
Notes: 8-mer, flanks averaged, mean of 2 arrays, mostly near background
Baseline: not given
Reading: higher = stronger binding
Target sequence (chain): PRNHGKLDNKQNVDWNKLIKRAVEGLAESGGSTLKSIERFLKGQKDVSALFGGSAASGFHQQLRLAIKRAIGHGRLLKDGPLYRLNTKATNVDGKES
Sequence	E-score
ATCTAGAG	-0.135
ATAAAACA	-0.029
GCCACCGC	0.185
CCCGCCTA	0.198
AACCACTG	0.0293
ATATGGGG	0.00571
AAAGCGAC	0.0715
CCCGTTTA	-0.00874
GAAATAGA	0.174
ACTCAGGC	0.111
ACTGGTCA	-0.0272
TTTGCAAA	0.156
AACCATAA	-0.0424
ATGTAAAA	-0.0614
AGCTGCTA	-0.0893
TCCTTACA	-0.254
AGGGGTAC	-0.0535
AGAAGCCT	0.0144
CAGATACC	-0.0796
CACATAGC	-0.0124
ATTTTCGG	0.0228
GCGAGTCA	0.0968
CTAGATTA	0.0671
TAAATGAA	-0.032
AGGAAGGC	0.148

Study 3
Target: RNA binding protein fox-1 homolog 2, RRM domain, GST-SBP tag (RBFOX2, Homo sapiens, UniProt O43251-10, residues 100-194)
Method: RNA Bind-n-Seq
Molecule type: RNA
Medium: in vitro
Tested at: 365 nM
Notes: natural RNA segment, single round, ends assumed
Baseline: no-protein control
Reading: higher = stronger binding
Constant ends, left off below: GGGAGUUCUACAGUCCGACGAUC … UGGAAUUCUCGGGUGCCAA
Target sequence (chain): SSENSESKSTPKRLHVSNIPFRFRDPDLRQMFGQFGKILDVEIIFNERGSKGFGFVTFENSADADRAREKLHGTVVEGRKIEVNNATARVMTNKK
Sequence	RBNS enrichment (R)
UUUAUGCCCCCAUUUUCCUUUUUUUGUAUCUACACCCACACGAUUCCCAAUGUUGGAUAUUUCUACAUGAAUAAAGCAAGGAUCAGUGCCUCUUAUGUAAUUAACGCUCC	0.797
CAGCCAUUAGGUUGAAAGUAUAUAUUUAUCAUAUAAAACUUGAUGCGUUUUGCACUACUCUUUCCAUUUAUAUGCUGCAAACAACUACAGUCUUUGAAAUAUGGAAAAUC	0.319
GCCGGGACGGGCCGGCGGGCACCAGGCUGGGGUCUCCUUGUCUGUGCUCUGAUAUGCUCCUUGACUGAAACUUUAAGGGGAUCUCUCCCAGAGACUUGACAUUUUAGCUU	0.519
CUGUGGCAAUUACAGUUUUUGACUUUUCCAUGUGAGAAUAAGGCCUUGGUAUUUCCCUAAGGGCAGGAUCAGAAAACAGGAAGGUCCAUGCCCAGGUGAUCCUCCAAGGG	0.486
GCCCAUGCGCACACCAGACCGCUGUCUUAGUACUGUCACUGUUGUAAAGGCACAUGUUGGAACACAUCCAGUCCUGCUGACCUGUAGAUAAUUAUUUUUCUCUAAAUGAA	0.274
AUUUCAUGACAGUUUCCUCUUUAGGGACAGCUGAGUUGCCAGUUGUGGGAGAGAACCCGGGGCCUGCUUUUCAAGGAUGAGGAGGAGGCAGGAACAGAAGGCAGCUGCUG	0.556
CAUUAAAAGUAUUAUCUUUAUCAACAUUUGCUGCUACUGUGUUAACAUUUUUGUUUUGCUUGCCAUGAAUUUCAACUUCCACCACCCAGUGAAUUGAUUUAUAAAUUGCU	1.69
UUGUUAUACAGUCCAGGAACUGGUAAGUGCCCUCACCAGCGAGCAUGGCAGGUAGCUUCACUCAGUGAGUAGCAAGGGCACUCAGCUCUGAGGAUCUCAAUUCAUACAGG	1.18

Study 4
Target: Sal-like protein 4, full length isoform A (SALL4, Homo sapiens, UniProt Q9UJQ4, residues 1-1053)
Chain of UniProt Q9UJQ4 (whole entry, looked up): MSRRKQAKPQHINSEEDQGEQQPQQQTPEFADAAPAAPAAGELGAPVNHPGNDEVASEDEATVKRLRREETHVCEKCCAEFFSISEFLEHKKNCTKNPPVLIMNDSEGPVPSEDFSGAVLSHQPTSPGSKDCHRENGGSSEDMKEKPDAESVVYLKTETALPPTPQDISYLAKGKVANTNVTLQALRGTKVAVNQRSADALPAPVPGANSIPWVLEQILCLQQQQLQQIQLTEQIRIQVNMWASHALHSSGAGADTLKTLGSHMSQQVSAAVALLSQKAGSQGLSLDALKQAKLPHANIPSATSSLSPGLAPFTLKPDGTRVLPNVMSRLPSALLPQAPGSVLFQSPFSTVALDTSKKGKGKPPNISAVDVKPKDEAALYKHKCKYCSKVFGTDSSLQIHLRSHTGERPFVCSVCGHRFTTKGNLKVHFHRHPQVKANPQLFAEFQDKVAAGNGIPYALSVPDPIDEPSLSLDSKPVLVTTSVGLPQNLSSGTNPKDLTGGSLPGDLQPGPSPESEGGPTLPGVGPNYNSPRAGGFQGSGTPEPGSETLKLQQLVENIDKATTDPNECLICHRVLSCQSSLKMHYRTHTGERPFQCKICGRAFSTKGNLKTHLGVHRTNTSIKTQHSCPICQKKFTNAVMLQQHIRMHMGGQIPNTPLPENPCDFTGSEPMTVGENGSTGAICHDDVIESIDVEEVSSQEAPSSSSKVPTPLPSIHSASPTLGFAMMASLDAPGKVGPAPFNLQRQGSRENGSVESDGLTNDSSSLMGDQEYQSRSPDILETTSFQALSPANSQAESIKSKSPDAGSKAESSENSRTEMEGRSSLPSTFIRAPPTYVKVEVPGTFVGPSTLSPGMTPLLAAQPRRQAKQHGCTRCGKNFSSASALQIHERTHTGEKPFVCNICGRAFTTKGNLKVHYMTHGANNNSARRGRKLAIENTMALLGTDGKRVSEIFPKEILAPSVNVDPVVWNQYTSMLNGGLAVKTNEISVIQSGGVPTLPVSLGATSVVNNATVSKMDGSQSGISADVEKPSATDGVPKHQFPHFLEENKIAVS
Method: universal PBM
Molecule type: double-stranded DNA, one strand shown
Medium: in vitro
Tested at: 600 nM
Notes: 8-mer, flanks averaged, mean of replicates
Reading: higher = stronger binding
Sequence	E-score
CTGGCCTA	-0.187
CTGAAACC	-0.00869
GCTAGCAA	-0.129
GTCACCTA	-0.127
CTCAGTGC	-0.197
CTACCTGA	-0.0789
GATCCAAA	0.155
ATCAAGGC	0.0204
CTTGCGCA	0.0453
AATCATCC	0.0324
CAGACTGC	-0.144
CGAGATTC	-0.152
GGGGTATA	0.0229
ATGAGTGA	0.126
CACGCGAG	-0.236
GGCAAGAA	0.0694
AACTTTGG	0.0257
ATGCCTAC	-0.048
AATGGGCG	-0.187
CGGGCCTA	-0.318
AAGGCACG	-0.226
ATTCATTG	0.204
CTCGTATC	0.0346
ATTAAGTA	0.25

For quick reference, copied from above (study 2):
Sequence	E-score
AGCTGCTA	-0.0893
CCCGTTTA	-0.00874
CCCGCCTA	0.198
AGGAAGGC	0.148
AGGGGTAC	-0.0535
